Experimental data gathered from unrelated publications.
Each numbered part is a random draw from the data of one study; scales do not carry over between parts. Positions count from the first letter of the parent shown.

Set 1
Target: Ras GTPase-activating protein-binding protein 1, C-terminal RGG region (G3BP1, Homo sapiens, UniProt Q13283)
Sequence of UniProt Q13283 (whole entry, looked up): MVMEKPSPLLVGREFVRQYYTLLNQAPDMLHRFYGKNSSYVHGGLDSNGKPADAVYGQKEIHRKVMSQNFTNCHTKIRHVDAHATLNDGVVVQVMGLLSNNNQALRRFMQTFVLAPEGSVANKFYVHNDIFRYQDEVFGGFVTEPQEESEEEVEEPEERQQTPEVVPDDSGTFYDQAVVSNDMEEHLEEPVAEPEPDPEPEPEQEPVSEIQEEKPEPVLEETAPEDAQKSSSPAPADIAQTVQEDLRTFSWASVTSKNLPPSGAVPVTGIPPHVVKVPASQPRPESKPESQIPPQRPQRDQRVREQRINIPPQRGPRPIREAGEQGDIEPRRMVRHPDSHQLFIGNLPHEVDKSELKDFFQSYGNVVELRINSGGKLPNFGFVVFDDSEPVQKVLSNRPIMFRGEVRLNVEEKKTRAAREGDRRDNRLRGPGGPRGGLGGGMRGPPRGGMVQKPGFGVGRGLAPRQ
Method: RNA Bind-n-Seq
Molecule type: RNA
Medium: in vitro
Tested at: 1 µM
Setting: whole 134-nt RNA, ends assumed
Added: 150 mM KCl
Relative to: input library
Reading: higher = stronger binding
Endpoint: log2 enrichment
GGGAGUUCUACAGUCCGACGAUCCCUGUGCUACACAUCGUAUGUACCGAAUCGGGGAAAAAAGGAAAAAAGGGGAAAAAAGGGGAAAGUAUUAUGUUACGCCGUUCGGAUCUGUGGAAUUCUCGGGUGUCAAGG: -1.56
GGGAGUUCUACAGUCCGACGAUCUUUCCAGCAGUACCAGCUCCAGCCAGGAUCACCCUCUCUACUCUGGGCACCCAUCCCUUCCACUAAGUGGUGCUAUUGCUGCUUUUGCCUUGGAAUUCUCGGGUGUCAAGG: 0.506
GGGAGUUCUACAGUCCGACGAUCAGUCCUGUGCUACACAUCGUAUGUACCGAAUCGGUUUUUGGUUUUUGGGUUUUUGGGGAAAGUAUUAUGUUACGCCGUUCGGAUCUGCACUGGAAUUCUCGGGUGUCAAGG: -1.38
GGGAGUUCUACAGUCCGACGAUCCUGUGCUACACAUCGUAUGUACCGAAUCGGGCCCCCCCGGGGCCCCCCCGGCCCCCCCGGGGAAAGUAUUAUGUUACGCCGUUCGGAUCUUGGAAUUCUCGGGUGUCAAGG: -2.27
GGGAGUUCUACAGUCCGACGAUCCCUCAAGUCCUGUGCUACACAUCGUAUGUACCGAAUCGGGAGGAGGGGAGGGGAAAGUAUUAUGUUACGCCGUUCGGAUCUGCACUUCCAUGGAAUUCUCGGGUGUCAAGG: 0.879
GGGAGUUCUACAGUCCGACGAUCUCCAAACCCAAGAAAAAGAAAUCUUUUUCCAAGGAGGAGUUGAUGAGUAGCGAUCUUGAAGAGACCGCUGGCAGCACCAGUAUUCCCAAGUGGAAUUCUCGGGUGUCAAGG: -0.969
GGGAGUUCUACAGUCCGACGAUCUUGCUGUCACCCGCUGCCUGUCUGCAGGAUCCCGGAUUCCGUAUCAGGGGACCGAAAUUAGUCGGAAAAUAGGAAGCAGGUGCUCGCUUGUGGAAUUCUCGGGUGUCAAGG: -1.64
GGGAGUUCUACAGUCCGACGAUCUGGGAGGUGGAUUUUGUUUAUUUUUUUAGCUCAUUUCCAGGGGUGGGAAUUUUUUUUUAAUAUGUGUCAUGAAAAAAGUUGUUUUUGAAAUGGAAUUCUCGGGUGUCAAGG: 2.54
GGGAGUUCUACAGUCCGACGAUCUCCUGUGCUACACAUCGUAUGUACCGAAUCGUGUGUGUGUGUGUGUGUGUGUGUGUGUGUAAAGUAUUAUGUUACGCCGUUCGGAUCUGCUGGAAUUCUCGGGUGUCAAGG: 1.48

Set 2
Target: Histone acetyltransferase KAT6A, winged helix 1, GST fusion (KAT6A, Homo sapiens, UniProt Q92794, residues 1-85)
Method: protein binding microarray
Molecule type: double-stranded DNA, one strand shown
Medium: in vitro
Tested at: not given
Setting: 8-mer, flanks averaged, mean of 2 arrays, mostly near background
Relative to: not given
Reading: higher = stronger binding
Endpoint: E-score
Target sequence (chain): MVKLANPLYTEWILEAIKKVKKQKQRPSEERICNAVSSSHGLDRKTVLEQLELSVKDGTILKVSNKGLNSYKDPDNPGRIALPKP
CCGTGTTC: 0.22
ATACCAGC: -0.135
AACAGGTC: -0.0988
GGACAGAA: -0.126
CATTACCA: -0.169
GGTTTACA: -0.0586
GATCCTCA: -0.122
AACGGTCG: 0.175
CATGCGCG: 0.423
CGTCTTTC: 0.0851
AGGGTTGC: -0.2
ACCGGTTG: -0.0524
AATCGCAC: -0.0366
AATTGGGG: -0.218
GAGTCGCC: 0.211
ATCGCCCA: -0.125
AATTTCCT: -0.215
ACTCTCGG: 0.119
GGACCTCA: -0.13
ACCATGGA: -0.155
TCCGGCGA: 0.224
AATGCTTA: -0.0884
CGGAAGGC: 0.181
GAAACGTA: -0.0741
ACCCAGGA: -0.181

Set 3
Target: CCNB2, cyclin fold, Cln2 fusion (human)
Method: yeast growth competition, sequencing
Medium: yeast
Setting: weak parent motif
Relative to: not given
Reading: higher = stronger binding
Endpoint: normalised enrichment score
Starting sequence: SLBP docking peptide (human); ARYKRKLLINDFG; partner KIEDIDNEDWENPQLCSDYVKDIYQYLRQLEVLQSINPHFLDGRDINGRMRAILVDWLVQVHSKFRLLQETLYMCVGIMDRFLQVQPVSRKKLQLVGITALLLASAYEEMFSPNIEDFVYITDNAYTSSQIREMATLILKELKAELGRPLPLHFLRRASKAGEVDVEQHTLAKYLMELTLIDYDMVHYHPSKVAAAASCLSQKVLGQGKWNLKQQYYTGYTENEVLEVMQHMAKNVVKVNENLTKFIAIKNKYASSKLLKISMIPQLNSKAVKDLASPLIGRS
LRYKRKLLINDFG [A1L]: 0.306
ARYKRKLLMNDFG [I9M]: 0.688
ARYKRKLLINDAG [F12A]: 0.0265
ARYKRKLLDNDFG [I9D]: 0.375
ARYKRKLLIGDFG [N10G]: 1.53
ARYKRKLWINDFG [L8W]: 1.29
ARYKRKLLIEDFG [N10E]: 1.36
ARYKRKLHINDFG [L8H]: 0.446
ARYKRKILINDFG [L7I]: 0.359
ARGKRKLLINDFG [Y3G]: 0.552
ARYKRSLLINDFG [K6S]: 0.378
ARYKRKLCINDFG [L8C]: 0.454
ARYKFKLLINDFG [R5F]: -0.129
ARYKRKGLINDFG [L7G]: 0.847
ARYKRDLLINDFG [K6D]: -0.00607
ARYKDKLLINDFG [R5D]: -0.0393
ARYKRKLLINDYG [F12Y]: 1.17
ARYKRKLLINLFG [D11L]: 0.274
ARYKRKQLINDFG [L7Q]: 0.52
ARYCRKLLINDFG [K4C]: 0.00825
ARYKRKLLIIDFG [N10I]: 0.524

Set 4
Target: RING finger protein unkempt homolog, zinc fingers 1-6, GST-SBP tag (UNK, Homo sapiens, UniProt Q9C0B0, residues 30-357)
Sequence of UniProt Q9C0B0 (30-357, looked up): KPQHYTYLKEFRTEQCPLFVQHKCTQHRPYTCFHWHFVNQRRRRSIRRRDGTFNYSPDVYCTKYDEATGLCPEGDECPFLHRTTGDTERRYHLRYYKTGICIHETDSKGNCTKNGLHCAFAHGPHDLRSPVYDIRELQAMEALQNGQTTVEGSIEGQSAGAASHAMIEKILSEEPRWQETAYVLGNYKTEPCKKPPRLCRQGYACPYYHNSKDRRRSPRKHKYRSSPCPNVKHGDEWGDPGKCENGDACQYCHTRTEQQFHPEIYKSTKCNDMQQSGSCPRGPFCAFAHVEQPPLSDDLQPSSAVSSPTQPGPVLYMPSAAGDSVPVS
Method: RNA Bind-n-Seq
Molecule type: RNA
Medium: in vitro
Tested at: not given
Setting: RNA with constant flanks, human-mouse chimeric sites, ends assumed
Relative to: input RNA pool
Reading: higher = stronger binding
Endpoint: bound/input enrichment
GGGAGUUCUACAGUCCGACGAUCCCCACGCCUCCUCUCCCACAGGCCCAAGAUAUAACCCACCAGUGCCUUUUGUCUUCCUGUCAGCUCUGUCAAUCACGCCUGUCCUCUCACGCCCACACCAAGUGCCCAAAGUGGGGAGGGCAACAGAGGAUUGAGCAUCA: 0.862 ratio
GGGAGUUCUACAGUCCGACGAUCCAGGGCAUCAUCUCUCGUGCUGUUAGACACCUGUUCAAGAGUAUUGAUGAGAAAAAGACCUCAGCGAUUAAAAACGGGCUUCCUGCUCCUGAAUUCAAAGUGAAUGCCCAGUUCCUAGAGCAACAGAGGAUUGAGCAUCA: 0.176 ratio
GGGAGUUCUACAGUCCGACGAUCUCCCAAAUUAUAAGGCAAGAAGGAGCCUUGAGACAAAGCCUGGAAAUACAGGGAAGGCGAUAACAUUGUACAUUGGUUUACAUUUUUUCCCCCUGUGGAUUUUUCUAGAGGUCAUAGUGCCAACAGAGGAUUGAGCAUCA: 0.342 ratio
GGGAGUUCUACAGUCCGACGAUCGCACUUGGGAAUGUAAUCAGCGCCUUGGGGGACAAGAGCAAGAGAGCCACCCAUGUCCCUUACAGAGACUCUAAGCUGACAAGACUCUUGCAGGAUUCCCUUGGGGGUAACAGCCAAACCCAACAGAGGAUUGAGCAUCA: 0.136 ratio
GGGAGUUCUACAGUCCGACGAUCAAAGAAUGGAUAGAGUGUGCACACGGGAUCGGUUAUACCCGGGCGAAAAAGGAGUGCAAGAUAGAGUUCGAUGACUUCGAAGAGUGCUUGCUUCGGUACAAAACGAUGAGGCGAAUGCAUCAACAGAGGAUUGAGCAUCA: 0.462 ratio
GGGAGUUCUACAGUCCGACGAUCCACGUGUCUGCAGUACUUGAUGUGGAUUACUCUCCCACUGGGAAGGAAUUUGUGUCUGCUAGUUUCGAUAAGUCUAUUAGAAUCUUUCCUGUGGACAAGAGCCGAAGCAGGGAAGUGUAUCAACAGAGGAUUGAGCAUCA: 1.46 ratio
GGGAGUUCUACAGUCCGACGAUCCGCUGGCCCAAGCUGAUGGACUCUGAUGGCCUCCAUCUCUCAGGCACGUGUGCCUUCUCUUAGUUAUUGUUUUCGGGAUGUUAUGAACAGUAUCAUGGUGGUUUGAAAGCACCAGCUUUGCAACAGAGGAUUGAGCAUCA: 0.521 ratio
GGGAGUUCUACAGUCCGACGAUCCCCCACAACCAUUUGCAGGUCUGGAACUGCACUCUCUUUAAAGUUUUACAUGUAUACAUUUUAGGGCUGUAGAUUUAUUUUCCUGGUUUUGUUUUUCAUUGCUGACUUUUGAGCACAGAACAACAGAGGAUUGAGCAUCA: 1.69 ratio

Repeated from above (set 1):
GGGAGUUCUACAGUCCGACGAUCCCUCAAGUCCUGUGCUACACAUCGUAUGUACCGAAUCGGGAGGAGGGGAGGGGAAAGUAUUAUGUUACGCCGUUCGGAUCUGCACUUCCAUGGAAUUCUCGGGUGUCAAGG: 0.879
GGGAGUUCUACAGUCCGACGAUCCCUGUGCUACACAUCGUAUGUACCGAAUCGGGGAAAAAAGGAAAAAAGGGGAAAAAAGGGGAAAGUAUUAUGUUACGCCGUUCGGAUCUGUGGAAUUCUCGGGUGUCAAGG: -1.56
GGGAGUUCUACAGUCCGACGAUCUGGGAGGUGGAUUUUGUUUAUUUUUUUAGCUCAUUUCCAGGGGUGGGAAUUUUUUUUUAAUAUGUGUCAUGAAAAAAGUUGUUUUUGAAAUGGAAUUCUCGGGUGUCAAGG: 2.54
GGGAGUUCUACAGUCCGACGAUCUCCAAACCCAAGAAAAAGAAAUCUUUUUCCAAGGAGGAGUUGAUGAGUAGCGAUCUUGAAGAGACCGCUGGCAGCACCAGUAUUCCCAAGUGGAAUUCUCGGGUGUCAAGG: -0.969
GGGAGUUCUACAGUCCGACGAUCUUGCUGUCACCCGCUGCCUGUCUGCAGGAUCCCGGAUUCCGUAUCAGGGGACCGAAAUUAGUCGGAAAAUAGGAAGCAGGUGCUCGCUUGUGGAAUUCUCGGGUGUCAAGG: -1.64
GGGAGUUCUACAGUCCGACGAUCAGUCCUGUGCUACACAUCGUAUGUACCGAAUCGGUUUUUGGUUUUUGGGUUUUUGGGGAAAGUAUUAUGUUACGCCGUUCGGAUCUGCACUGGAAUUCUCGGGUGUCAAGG: -1.38
